Experimental data gathered from unrelated publications.
A part holds a random share of what one study measured. Substitutions count along the parent as printed.
UniProt P61081, sequence (whole entry, looked up): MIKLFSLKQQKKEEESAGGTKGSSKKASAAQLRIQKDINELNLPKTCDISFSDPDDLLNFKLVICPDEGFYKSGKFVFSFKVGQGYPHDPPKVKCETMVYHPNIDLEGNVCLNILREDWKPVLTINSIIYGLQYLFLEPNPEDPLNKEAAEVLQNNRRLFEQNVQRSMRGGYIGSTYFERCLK
UniProt Q9C0C9, sequence (whole entry, looked up): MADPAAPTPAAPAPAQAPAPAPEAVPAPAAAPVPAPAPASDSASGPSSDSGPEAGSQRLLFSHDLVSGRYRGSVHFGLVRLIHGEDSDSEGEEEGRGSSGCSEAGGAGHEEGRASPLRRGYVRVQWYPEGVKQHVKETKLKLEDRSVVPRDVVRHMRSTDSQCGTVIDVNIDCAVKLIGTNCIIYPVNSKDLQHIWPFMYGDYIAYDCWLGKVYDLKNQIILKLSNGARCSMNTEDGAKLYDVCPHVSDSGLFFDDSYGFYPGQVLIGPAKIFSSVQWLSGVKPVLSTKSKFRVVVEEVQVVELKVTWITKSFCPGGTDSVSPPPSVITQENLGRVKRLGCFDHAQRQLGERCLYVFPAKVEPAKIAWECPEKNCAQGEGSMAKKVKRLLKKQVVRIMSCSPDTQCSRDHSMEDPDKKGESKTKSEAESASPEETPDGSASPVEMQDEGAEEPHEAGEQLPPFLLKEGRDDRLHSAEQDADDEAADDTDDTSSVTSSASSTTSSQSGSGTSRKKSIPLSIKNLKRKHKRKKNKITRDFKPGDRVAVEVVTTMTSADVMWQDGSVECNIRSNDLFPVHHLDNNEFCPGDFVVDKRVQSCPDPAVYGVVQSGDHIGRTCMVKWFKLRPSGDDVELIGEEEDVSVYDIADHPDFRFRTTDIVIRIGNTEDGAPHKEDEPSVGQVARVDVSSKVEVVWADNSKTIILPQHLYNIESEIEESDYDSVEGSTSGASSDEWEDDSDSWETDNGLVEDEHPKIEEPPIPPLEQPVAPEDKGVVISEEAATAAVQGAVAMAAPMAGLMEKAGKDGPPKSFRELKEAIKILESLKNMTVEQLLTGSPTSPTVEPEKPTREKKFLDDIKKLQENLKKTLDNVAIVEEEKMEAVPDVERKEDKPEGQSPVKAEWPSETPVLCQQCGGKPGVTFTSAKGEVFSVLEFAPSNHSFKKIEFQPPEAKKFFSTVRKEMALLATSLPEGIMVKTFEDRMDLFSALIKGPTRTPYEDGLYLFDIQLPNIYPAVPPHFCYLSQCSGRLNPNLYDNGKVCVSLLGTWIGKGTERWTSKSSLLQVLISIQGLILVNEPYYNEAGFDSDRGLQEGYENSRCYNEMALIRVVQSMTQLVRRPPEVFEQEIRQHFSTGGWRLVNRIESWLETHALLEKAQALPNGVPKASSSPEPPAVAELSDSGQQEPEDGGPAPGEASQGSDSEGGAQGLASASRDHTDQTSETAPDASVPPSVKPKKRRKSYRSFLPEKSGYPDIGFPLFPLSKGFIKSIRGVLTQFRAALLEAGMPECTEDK
UniProt Q16763, sequence (whole entry, looked up): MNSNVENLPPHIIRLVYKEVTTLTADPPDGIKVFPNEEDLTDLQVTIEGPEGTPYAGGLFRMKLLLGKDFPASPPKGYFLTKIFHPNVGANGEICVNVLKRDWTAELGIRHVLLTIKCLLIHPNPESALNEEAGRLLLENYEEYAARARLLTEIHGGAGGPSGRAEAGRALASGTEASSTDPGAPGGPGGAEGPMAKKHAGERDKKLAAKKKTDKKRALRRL
UniProt Q712K3, sequence (whole entry, looked up): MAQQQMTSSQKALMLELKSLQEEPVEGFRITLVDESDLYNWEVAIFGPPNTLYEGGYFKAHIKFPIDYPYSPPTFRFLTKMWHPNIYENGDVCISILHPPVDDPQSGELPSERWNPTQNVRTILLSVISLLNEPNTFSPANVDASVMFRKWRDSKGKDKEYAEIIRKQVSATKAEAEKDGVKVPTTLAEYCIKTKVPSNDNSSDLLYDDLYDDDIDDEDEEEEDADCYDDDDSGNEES
UniProt Q9Y385, sequence (whole entry, looked up): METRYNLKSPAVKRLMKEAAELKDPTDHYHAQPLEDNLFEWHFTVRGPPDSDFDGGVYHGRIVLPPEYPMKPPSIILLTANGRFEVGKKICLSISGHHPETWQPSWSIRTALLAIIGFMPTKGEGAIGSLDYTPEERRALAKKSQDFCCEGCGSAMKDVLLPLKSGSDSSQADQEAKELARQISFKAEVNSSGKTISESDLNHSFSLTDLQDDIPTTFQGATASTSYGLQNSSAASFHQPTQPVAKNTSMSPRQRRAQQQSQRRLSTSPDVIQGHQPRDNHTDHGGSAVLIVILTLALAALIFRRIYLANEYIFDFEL
UniProt P68036, sequence (whole entry, looked up): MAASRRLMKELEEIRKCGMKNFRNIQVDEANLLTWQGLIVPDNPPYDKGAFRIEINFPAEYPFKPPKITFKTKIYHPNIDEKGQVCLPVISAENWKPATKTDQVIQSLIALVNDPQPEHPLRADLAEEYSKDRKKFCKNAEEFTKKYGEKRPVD

Study 1
Target: CCNB1, cyclin fold, Cln2 fusion (human)
Method: yeast growth competition, sequencing
Medium: yeast
Setting: weak parent motif
Relative to: not given
Direction: higher = stronger binding
Parent: PLK5 docking peptide (human); IFRKVGQRLLTQC
`IFRKVGQRLLTQA [C13A]` — result for “normalised enrichment score”: 0.273.
`IFRKVGQRLLTAC [Q12A]`: “normalised enrichment score” 0.743.
For `IFRKVGQALLTQC [R8A]`, “normalised enrichment score” read 0.668.
For `AFRKVGQRLLTQC [I1A]`, “normalised enrichment score” read 0.0808.
`IFRKVGARLLTQC [Q7A]`: “normalised enrichment score” 0.628.
`IFRKVGQRLLAQC [T11A]`: “normalised enrichment score” 0.837.
`IFRKVGQRALTQC [L9A]` — result for “normalised enrichment score”: 0.434.

Study 2
Target: Histone acetyltransferase KAT6A, both winged helices, GST fusion (KAT6A, Homo sapiens, UniProt Q92794, residues 1-181)
Method: protein binding microarray
Molecule type: double-stranded DNA, one strand shown
Medium: in vitro
Tested at: not given
Setting: 8-mer, flanks averaged, mean of 2 arrays, mostly near background
Relative to: not given
Direction: higher = stronger binding
Construct (chain): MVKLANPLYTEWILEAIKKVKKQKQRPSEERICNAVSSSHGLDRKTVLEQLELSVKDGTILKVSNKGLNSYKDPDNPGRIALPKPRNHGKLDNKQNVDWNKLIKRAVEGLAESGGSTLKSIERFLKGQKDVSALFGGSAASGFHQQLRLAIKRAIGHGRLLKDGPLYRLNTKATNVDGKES
The E-score of `CCGTGAGA` is reported as 0.236.
With `ATAGCGCC` the E-score was 0.212.
`TACACGGA` has an E-score of 0.19.
`AAATAAGG` gave an E-score of -0.219.
`TGCCATAA` gave an E-score of -0.0855.
`CTAAAATC` has an E-score of -0.193.
With `CATTGGCC` the E-score was -0.0799.
The E-score of `ATAGGACG` is reported as 0.0801.
`CCGCATAA` has an E-score of 0.151.
`ATCCTAAA` gave an E-score of -0.126.
For `GGAAGGCA`, the E-score was -0.0613.
`CGGGCGGA` has an E-score of 0.198.
With `CCAGCTGG` the E-score was -0.174.
For `CGCGACGC`, the E-score was 0.363.
With `TAGGTCGA` the E-score was 0.0241.
`CGTTCACA` gave an E-score of 0.0547.
With `GGCTGCTA` the E-score was -0.0621.
`CGGAAGGC` gave an E-score of 0.147.
With `AGAGAATA` the E-score was -0.0527.
`CTCGCACC` gave an E-score of -0.0489.
The E-score of `ACCCCCCC` is reported as -0.107.
For `TACGTCGA`, the E-score was -0.152.
`AAAGTGAA` gave an E-score of -0.0586.
With `CACATCGA` the E-score was -0.0642.
`CAGCCGGG` gave an E-score of 0.00226.

Study 3
Target: Prothrombin, mature alpha-thrombin (F2, Homo sapiens, UniProt P00734)
Method: aptamer microarray, sandwich
Molecule type: DNA with 2'F-ANA
Medium: in vitro
Tested at: 200 nM
Setting: whole 15-mer aptamer, many near background
Added: Cy3 exosite-II aptamer, 400 nM
Direction: higher = stronger binding
Strand: GGTTGGTGTGGTTGG
`2'F-ANA at 1 2 3 4 7 9 10 14`: “mean fluorescence intensity” 50.9 a.u.
`2'F-ANA at 4 5 6 9 10 11 14`: “mean fluorescence intensity” 45.6 a.u.
Under “mean fluorescence intensity”, `2'F-ANA at 1 3 8 10 14` is recorded as 56.8 a.u.
Under “mean fluorescence intensity”, `2'F-ANA at 4 5 7 10 11 14 15` is recorded as 44.9 a.u.
For `2'F-ANA at 2 4 5 6 8 9 10 11 13 15`, “mean fluorescence intensity” read 53 a.u.
`2'F-ANA at 1 3 4 6 8 9 10 12 13` — result for “mean fluorescence intensity”: 95 a.u.
`2'F-ANA at 1 4 8 9 10 13`: “mean fluorescence intensity” 48.4 a.u.
`2'F-ANA at 3 4 7 8 9 10 11 12 14 15`: “mean fluorescence intensity” 212 a.u.
`2'F-ANA at 3 6 10 11 12 13 15` — result for “mean fluorescence intensity”: 490 a.u.
Under “mean fluorescence intensity”, `2'F-ANA at 2 3 4 11 12 13 15` is recorded as 584 a.u.
For `2'F-ANA at 1 3 4 5 6 7 8 9 10 13`, “mean fluorescence intensity” read 98.6 a.u.
`2'F-ANA at 1 2 3 5 6 10 11 14 15` — result for “mean fluorescence intensity”: 49 a.u.
`2'F-ANA at 2 5 7 8 11 15` — result for “mean fluorescence intensity”: 97.9 a.u.
For `2'F-ANA at 1 3 4 5 7 8 9 11 13 14`, “mean fluorescence intensity” read 46.6 a.u.
Under “mean fluorescence intensity”, `2'F-ANA at 2 5 8 10 11 14` is recorded as 46.4 a.u.
`2'F-ANA at 2 9 11 12 14 15`: “mean fluorescence intensity” 159 a.u.
`2'F-ANA at 1 2 6 7 10 12 13 15` — result for “mean fluorescence intensity”: 65.4 a.u.

Study 4
Target: ABI1, truncated, D143A, DHFR fusion (Arabidopsis thaliana)
Method: DHFR PCA, deep sequencing
Medium: yeast
Setting: methotrexate growth selection, single substitutions
Added: (+)-ABA 0.0091 µM
Relative to: wild-type fitted maximum
Direction: higher = stronger binding
Parent: PYL1, truncated, DHFR fusion (Arabidopsis thaliana); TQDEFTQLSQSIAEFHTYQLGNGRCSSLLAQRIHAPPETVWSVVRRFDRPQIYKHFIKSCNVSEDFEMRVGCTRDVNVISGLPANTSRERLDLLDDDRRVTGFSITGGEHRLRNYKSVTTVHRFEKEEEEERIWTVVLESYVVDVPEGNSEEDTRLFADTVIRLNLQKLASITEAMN; partner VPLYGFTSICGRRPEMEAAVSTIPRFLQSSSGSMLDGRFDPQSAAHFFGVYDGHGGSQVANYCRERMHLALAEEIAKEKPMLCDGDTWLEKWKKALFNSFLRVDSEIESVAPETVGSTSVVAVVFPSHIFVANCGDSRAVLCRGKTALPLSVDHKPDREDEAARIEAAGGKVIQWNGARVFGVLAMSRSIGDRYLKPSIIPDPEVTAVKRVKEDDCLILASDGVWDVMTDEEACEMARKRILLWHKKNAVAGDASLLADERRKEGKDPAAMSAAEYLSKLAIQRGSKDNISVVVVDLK
`G107Y` — result for “relative binding score”: -5.31%.
For `V78M`, “relative binding score” read 70.8%.
Under “relative binding score”, `S87A` is recorded as 4.91%.
For `G107F`, “relative binding score” read -8.21%.
`L112A`: “relative binding score” 24.7%.
`Y115A`: “relative binding score” 5.99%.
`L112G`: “relative binding score” -4.68%.
`Q51E` — result for “relative binding score”: 19.8%.
For `F157H`, “relative binding score” read 1.33%.
For `I105D`, “relative binding score” read 0.733%.
Under “relative binding score”, `K58L` is recorded as 2.71%.
`T17Q` — result for “relative binding score”: 15.2%.
`V161M`: “relative binding score” 67.2%.
Under “relative binding score”, `Y18E` is recorded as -0.227%.
`E128C` — result for “relative binding score”: 32.2%.
For `V118G`, “relative binding score” read -2.74%.
`R113E` — result for “relative binding score”: -3.18%.
Under “relative binding score”, `V118D` is recorded as -0.0312%.
`R45K` — result for “relative binding score”: -0.137%.
For `R69D`, “relative binding score” read -0.496%.
For `E125M`, “relative binding score” read 22.6%.
For `N149V`, “relative binding score” read 56.4%.
`F56H`: “relative binding score” -0.608%.

Study 5
Molecule: B1 (ARIH1 RING domain)
Method: yeast two-hybrid
Medium: yeast
Setting: mostly zero background
Relative to: not given
Direction: higher = stronger interaction
B1: ARIH1 RING domain (UniProt Q9Y4X5); chain NTRSSAQDMPCQICYLNYPNSYFTGLECGHKFCMQCWSEYLTTKIMEEGMGQTISCPAHGCDILVDDNTVM
UBE2L3 UBC core domain (UniProt P68036) — “lacZ reporter activity”: 0.
The “lacZ reporter activity” was 0 (BIRC6 UBC core domain (UniProt Q9NR09)).
It gave 0 for “lacZ reporter activity” (UBE2R2 UBC core domain (UniProt Q712K3)).
UBE2J1 UBC core domain (UniProt Q9Y385) — “lacZ reporter activity”: 0.
The “lacZ reporter activity” was 0 (UBE2O UBC core domain (UniProt Q9C0C9)).
The “lacZ reporter activity” was 0 (UBE2M UBC core domain (UniProt P61081)).
The “lacZ reporter activity” was 0 (UBE2S UBC core domain (UniProt Q16763)).

For quick reference, copied from above (study 3):
`2'F-ANA at 1 2 3 4 7 9 10 14`: “mean fluorescence intensity” 50.9 a.u.
`2'F-ANA at 4 5 6 9 10 11 14`: “mean fluorescence intensity” 45.6 a.u.
Under “mean fluorescence intensity”, `2'F-ANA at 1 3 8 10 14` is recorded as 56.8 a.u.
Under “mean fluorescence intensity”, `2'F-ANA at 4 5 7 10 11 14 15` is recorded as 44.9 a.u.
For `2'F-ANA at 2 4 5 6 8 9 10 11 13 15`, “mean fluorescence intensity” read 53 a.u.
`2'F-ANA at 1 3 4 6 8 9 10 12 13` — result for “mean fluorescence intensity”: 95 a.u.
`2'F-ANA at 1 4 8 9 10 13`: “mean fluorescence intensity” 48.4 a.u.
`2'F-ANA at 3 4 7 8 9 10 11 12 14 15`: “mean fluorescence intensity” 212 a.u.
`2'F-ANA at 3 6 10 11 12 13 15` — result for “mean fluorescence intensity”: 490 a.u.
Under “mean fluorescence intensity”, `2'F-ANA at 2 3 4 11 12 13 15` is recorded as 584 a.u.
For `2'F-ANA at 1 3 4 5 6 7 8 9 10 13`, “mean fluorescence intensity” read 98.6 a.u.
